Results pooled from the literature.
Every numbered part comes from another study and shows a few of its results, in no order. Substitutions count along the parent as printed.

Block 1
Target: Sal-like protein 4, full length isoform A (SALL4, Homo sapiens, UniProt Q9UJQ4, residues 1-1053)
Chain of UniProt Q9UJQ4 (whole entry, looked up): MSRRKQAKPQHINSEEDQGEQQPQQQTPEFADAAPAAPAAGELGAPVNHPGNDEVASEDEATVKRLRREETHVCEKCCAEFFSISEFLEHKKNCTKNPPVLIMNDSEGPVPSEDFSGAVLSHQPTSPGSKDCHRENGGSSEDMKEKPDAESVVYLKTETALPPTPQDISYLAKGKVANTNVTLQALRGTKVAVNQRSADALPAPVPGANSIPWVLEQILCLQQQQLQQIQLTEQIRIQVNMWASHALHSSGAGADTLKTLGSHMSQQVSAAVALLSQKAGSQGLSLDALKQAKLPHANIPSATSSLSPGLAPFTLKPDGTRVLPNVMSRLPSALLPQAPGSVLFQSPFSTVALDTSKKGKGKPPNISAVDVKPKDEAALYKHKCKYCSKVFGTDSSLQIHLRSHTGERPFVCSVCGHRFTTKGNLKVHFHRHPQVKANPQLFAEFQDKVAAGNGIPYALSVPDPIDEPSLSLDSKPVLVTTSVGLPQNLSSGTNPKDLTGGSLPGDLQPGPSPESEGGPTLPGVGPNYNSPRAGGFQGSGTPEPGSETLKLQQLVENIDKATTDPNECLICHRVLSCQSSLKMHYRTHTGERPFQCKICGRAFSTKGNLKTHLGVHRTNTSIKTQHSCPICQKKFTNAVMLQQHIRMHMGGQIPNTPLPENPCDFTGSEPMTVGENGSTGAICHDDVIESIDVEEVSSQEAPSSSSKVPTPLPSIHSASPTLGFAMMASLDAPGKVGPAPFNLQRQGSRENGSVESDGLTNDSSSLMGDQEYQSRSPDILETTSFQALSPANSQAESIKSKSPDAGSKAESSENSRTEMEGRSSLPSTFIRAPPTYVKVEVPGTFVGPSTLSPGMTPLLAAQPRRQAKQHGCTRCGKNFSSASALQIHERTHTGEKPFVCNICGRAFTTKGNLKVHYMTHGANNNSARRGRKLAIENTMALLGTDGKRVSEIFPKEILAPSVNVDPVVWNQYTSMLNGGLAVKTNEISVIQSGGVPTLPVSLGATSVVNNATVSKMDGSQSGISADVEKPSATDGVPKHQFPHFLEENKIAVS
Method: universal PBM
Molecule type: double-stranded DNA, one strand shown
Matrix: in vitro
Concentration: 600 nM
Setting: 8-mer, flanks averaged, mean of replicates
Reading: higher = stronger binding
Quantity: E-score
CACGGCCC: -0.23
CCCCGTGA: -0.211
ATTGCACA: 0.168
GGCTAGTA: 0.00259
TGATCACA: 0.0588
CAGATCGC: -0.188
GTGGAGGA: -0.0352
CGAGCGCG: -0.222
ACTCGCAG: -0.096
AGCCATAC: -0.097
ACTAGCAG: -0.00397
CGACAAGA: -0.013
ATATCGTA: 0.248
AATATGGG: 0.262
CAAATTCA: 0.125
GCTAAGAA: -0.0717
ATGTCCTA: 0.026
GCCCTCAA: -0.147
CTAGTTCC: 0.026

Block 2
Target: CCNF, cyclin fold, Cln2 fusion (human)
Method: yeast growth competition, sequencing
Matrix: yeast
Setting: weak parent motif
Reference: not given
Reading: higher = stronger binding
Quantity: normalised enrichment score
Starting sequence: FZR1 docking peptide (human); QDYERRLLRQIVI
I11A: 1.56
L8A: 0.612
R5K: 0.261
Q10A: 0.534
R6A: 1.35
Q1A: 0.791
Y3A: 0.906

Block 3
Target: ABI1, truncated, D143A, DHFR fusion (Arabidopsis thaliana)
Method: DHFR PCA, deep sequencing
Matrix: yeast
Setting: methotrexate growth selection, single substitutions
With: (+)-ABA 2500 µM
Reference: wild-type fitted maximum
Reading: higher = stronger binding
Quantity: relative binding score
Starting sequence: PYL1, truncated, DHFR fusion (Arabidopsis thaliana); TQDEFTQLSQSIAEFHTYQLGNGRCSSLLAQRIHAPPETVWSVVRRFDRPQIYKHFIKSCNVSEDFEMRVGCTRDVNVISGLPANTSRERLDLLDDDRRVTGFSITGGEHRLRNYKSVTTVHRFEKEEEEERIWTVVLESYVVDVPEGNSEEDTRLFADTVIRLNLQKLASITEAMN
D75L: 94.7%
I105W: 11.2%
E147W: 91.1%
E130K: 108%
Q51T: 93.6%
T160K: 94.1%
R32A: 87.6%
C60M: 79%
I12P: 59.5%
I12W: 87%
L164G: 93.1%
A84S: 85.7%
D153Y: 35.2%
E125F: 107%

Block 4
Target: Centromere-binding protein 1, full length, His-tagged (CBF1, Saccharomyces cerevisiae, UniProt P17106, residues 1-351)
Chain of UniProt P17106 (whole entry, looked up): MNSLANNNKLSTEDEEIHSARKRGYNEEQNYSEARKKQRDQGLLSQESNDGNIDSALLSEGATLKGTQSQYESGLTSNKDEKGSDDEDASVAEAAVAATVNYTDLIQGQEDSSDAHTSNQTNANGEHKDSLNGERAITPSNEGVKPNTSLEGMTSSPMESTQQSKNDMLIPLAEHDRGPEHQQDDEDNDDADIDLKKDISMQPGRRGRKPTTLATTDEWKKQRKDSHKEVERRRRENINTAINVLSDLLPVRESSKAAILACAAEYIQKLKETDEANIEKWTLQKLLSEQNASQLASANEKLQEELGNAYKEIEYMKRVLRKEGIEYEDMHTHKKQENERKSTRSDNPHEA
Method: competition protein-binding microarray
Molecule type: double-stranded DNA, one strand shown
Matrix: in vitro
Concentration: 2 µM
Setting: whole 60-bp probe, lowest competitor level
With: Pho4 competitor, 0.05 µM
Reading: higher = stronger binding
Quantity: fluorescence intensity
Shared flanks, not repeated: … GTCTTGATTCGCTTGACGCTGCTG
CCGGCGCGGTCGTACATCGTGACGGTCCTGCGCTGG: 81.1 a.u.
AAGTTCCTACCACAACGCGTGTGAATGATCTTGTAC: 87.5 a.u.
GAGTGGGCTGGCGGCAGCATGCAGAGCGTTATCGCT: 51.2 a.u.
TGCGCAACAACTTGTCACCTAACTTTATGTCTAGAA: 68.4 a.u.
TTGGTGTGGGTAAAACACGTGAATAAGAAACTGTAT: 1490 a.u.
GGTTTGGGTCTTGTTCTCGTGGAGGATCCTTTTGGT: 85.5 a.u.
TGCGCAACAACTTGGCAGGTGGGTGTATGTCTAGAA: 99.2 a.u.
AGAGTTTGCAGAGTCCATGTGTCAAGAATTAGAACT: 105 a.u.
AAATTACTAAGTTCGCACGTGTTTTACCCCGTATGA: 1170 a.u.
AATTGGGTATTTTACCTCGTGATGGCCTCACAAAAG: 481 a.u.
CACAGCGAAGTATGGCTCGTGACTCGCAAAATCATC: 854 a.u.
TTCGCCAGTGCTTTGCCCGTGCAAATCGGATGCTGG: 78.6 a.u.
TCCAGAATATAATAATATCGTATGGACCATCTCGCT: 79 a.u.
AAAGCGGTAATTTGGCGAGTGGGTGCAGATATCTAT: 74.9 a.u.
ATGGTTTATCCCGGCCACGTGTGTTACCTCCGGTGA: 923 a.u.
TTTGGCCTCAAATGACACATGCAATCTCGAACAGTT: 90.1 a.u.
GGTCCAGCCTCGAAACTCGTGACGGCATTTGAGGTG: 408 a.u.
TAAGTTCCAGCTCTTCACGTGCTTTTGCTTCTCTCA: 978 a.u.
TAATTTGCTGTCCATCACGTGATGGATAATTTTTTT: 13900 a.u.
CTTCTGTAAATTTGTAGGGTGGGTGGACGCGCCCCG: 82.7 a.u.
GTCTTGTCTCATTGAACAGTGGGTGTCCCCACTTCA: 79.3 a.u.
GGGACAACGGCTTGCTAGGTGCATTTACTTCATTCA: 60.5 a.u.
CGTCCTAGTGATTGGTGAGTGGGTGCCATGAGGAAG: 95.8 a.u.
CTTTTGGGCGGCCATCACGCAGATGTGGTGTTTGAG: 75.4 a.u.
CATACCCAACCTTGTTCTGTGGGTGAAGATATTTGT: 71.4 a.u.

Block 5
Target: RNA binding protein fox-1 homolog 2, RRM domain, GST-SBP tag (RBFOX2, Homo sapiens, UniProt O43251-10, residues 100-194)
Method: RNA Bind-n-Seq
Molecule type: RNA
Matrix: in vitro
Concentration: 365 nM
Setting: natural RNA segment, single round, ends assumed
Reference: no-protein control
Reading: higher = stronger binding
Quantity: RBNS enrichment (R)
Shared flanks, not repeated: GGGAGUUCUACAGUCCGACGAUC … UGGAAUUCUCGGGUGCCAA
Residues (chain): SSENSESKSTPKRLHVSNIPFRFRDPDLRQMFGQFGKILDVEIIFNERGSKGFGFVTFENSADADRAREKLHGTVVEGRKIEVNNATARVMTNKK
CUUCUGAGUCUCUCCAGCGACCUGGGGCCCCUGAGGGCCCGAGGAGCUGAUAAAUAAGGGCUGAGGCAAGUGACUCCUUAGAUCAGCACUGACUGAACGAAAGCCAGGCA: 0.26
UGGUCAAGCUUGUAAAUAACUUUUUUUACAUUUUAAUCUUUUCCAUUAAUUAAGAGGUUGAAAAGAAGUGCAGUGUAAGAAAACCCAGCAUUUUAAUUACUUGCAAAUUA: 0.826
GCCGCCCUCGGGCGCACGGCCUGCCUGUCGCAUGUUUGUGUCUGCCUCGUCCCCUCCCCUGGUGCCUGUGUCUGCAGAAAAACAAGACCAGAUGUGAUUUGUUUUUAAAA: 1.52
GUACCUGUGGAUUUUCCAAUAGUGAGGGUUAGCUCUGCCUCCAGGGCCCGCUAAGUUCUGCUGAGCAGGCCUGUCCACGCUGUUCCUUACCGGUGAGACUGGGCUUGGAC: 0.408
AAAAGAAUCUUGUAACUUUAUUCUUUUUUCUCCUGCUGAAAAAAAAAAUUAAACCAAUCGUAUGAAAGUUUGGUUUUCUUGUUUCACCCCUUCUCCUAAGUGCCCCCUGG: 0.816
CAAAAGCACUAUAUGGACUGGUAAUGGUUACAGGUUCAGAGAUUACCCAGUGAGGCCUUAUUCCUCCCUUCCCCCCAAAACUGACACCUUUGUUAGCCACCUCCCCACCC: 0.763
CCAAAUGUAGCUCAUACCUCUUUAUAAAACUAAACUGUUGUUAGAUAAAAUGAGAAGAGACCAUUCCAUCAUUGAAGUGUUGGAAUAUAAAAAGACAUUCCAGAGCAUAG: 1.04
AAUCAGGAAGCUGAUCACACUUCAUUAGAGGAUCUAGGCAUAGCUGUCUUCCAGUACUGAUAGAAGAUGCUCCUGGGCUUCAUUCUGGAUUGUUAAACAGUAGAAAUGCA: 4.44
CACAGCAGCAAAGCACAGAGUGUGACCUUUUUCAUGUCUGAGCUGAUUCUGUUUGCUCCACGUGCCUGCUUCUUGCUACUGUUCAUUUAGUAAUGGGAUCACCUCACCAU: 0.461
GUGGAUCUGCGGUGAAGCCAAGCCGCAAGGUUACAAGGCAUCCUCACCAGGGGCCCCGCCUGCUGCUCCCAGGUGGCCUGCGGCCACUGCUAUGCUCAAGGACCUGGAAA: 0.508
UGAGAAUUGAAGACUUAGCCAGUCAGAUAAGUUUUUUCAUGAACCCGUUGUGGAAAUUAUUGGAAUUAACUGAGCCAAAGUGAUUAUGCAUUCUUCAUCUAUUUUAGUUA: 0.742
UUACUGGGAAGUGGACACUAGGAAUUGCAGCCACUGGGCAGUUGGGGUGGCUUCCUGGGAGAUGAGCCGCGACCAGGUCCUGGGAAGGACUAUGGACUCUUGUUGUGUGG: 1.76

A few entries again (block 1):
AATATGGG: 0.262
ATGTCCTA: 0.026
ACTAGCAG: -0.00397
CACGGCCC: -0.23
